Published values collected from several papers.
Numbers after ± are the reported error.
rep main protease: Replicase polyprotein 1ab, main protease (rep, Severe acute respiratory syndrome coronavirus 2, UniProt P0DTD1)

Nc1ncnc2c1ncn2[C@@H]1O[C@H](CSCc2cc(C#CCO)cc(C(=O)O)c2)[C@@H](O)[C@H]1O
IC50 (Replicase polyprotein 1ab, nsp16 with nsp10 (rep, Severe acute respiratory syndrome coronavirus 2, UniProt P0DTD1); methyltransferase activity, inhibitor; 30 min, 30 °C, with: SAM 10 µM): 4.6 ± 0.2 nM

CC(=O)N[C@@H](Cc1ccc(O)cc1)C(=O)N[C@@H](CC(=O)O)C(=O)N[C@@H](C)C(=O)N[C@@H](Cc1ccccc1)C(=O)N[C@@H](Cc1ccc(O)cc1)C(=O)N[C@@H](C)C(=O)N[C@@H](Cc1ccc(O)cc1)C(=O)N[C@H](C(=O)N[C@H](C(=O)N[C@@H](Cc1ccccc1)C(=O)N[C@@H](Cc1c[nH]cn1)C(=O)N[C@H](C(=O)N[C@@H](C)C(=O)N[C@H](C(N)=O)[C@@H](C)O)C(C)C)[C@@H](C)O)C(C)C
IC50 (rep main protease; enzyme activity, inhibitor): > 16000 nM

O=c1c2ccccc2sn1-c1ccccc1
IC50 (rep main protease; enzyme activity, inhibitor; 0 min preincubation): 170 ± 20 nM

CCOC(=O)ONC(=O)/C=C\c1ccc(Cl)cc1Cl
IC50 (rep main protease; enzyme activity, inhibitor, FRET): 420 nM

N#Cc1ccccc1C[C@@H](N)C(=O)N[C@H](Cc1ccc(Cl)cc1Cl)C(=O)N[C@H](CC(=O)NCCCNc1nnc(N)[nH]1)Cc1ccc(F)cc1
IC50 (rep main protease; enzyme activity, inhibitor, fluorescence): 500 nM

CC[C@@H](C)[C@H](NC(=O)c1ccccc1[Se][Se]c1ccccc1C(=O)N[C@H](C(=O)OC)[C@H](C)CC)C(=O)OC
IC50 (rep main protease; enzyme activity, inhibitor): 1260 nM

O=C(NCCc1cccc(F)c1)C(c1cncnc1)N(C(=O)C(F)Cl)c1ccc(S(F)(F)(F)(F)F)cc1 (stereo not shown)
IC50 (rep main protease; enzyme activity, inhibitor): 210 nM

O=S(=O)(/N=c1/ssc(-c2ccccc2)c1Cl)c1ccccc1
IC50 (rep main protease; enzyme activity, inhibitor; 180 min): 11900 ± 1800 nM

COC(=O)C[C@H](c1ccc(O)cc1)c1c(O)cc(O)c2c1O[C@H](c1cc(O)c(O)c(O)c1)[C@H](OC(=O)c1cc(O)c(O)c(O)c1)C2
IC50 (rep main protease; enzyme activity, inhibitor, FRET): 5950 nM

CNC(=O)C[C@H](Cc1ccccc1)NC(=O)[C@@H](Cc1ccc(Cl)cc1Cl)NC(=O)[C@H](N)Cc1ccccc1C#N
IC50 (rep main protease; enzyme activity, inhibitor, fluorescence): 300 nM

O=C(O)/C=C/c1ccc(O)c(O)c1
IC50 (rep main protease; inhibitor): 53600 ± 890 nM

CC1CC(c2ccc(-c3nnn[nH]3)cc2)=NN1c1ccc(C#N)c(Cl)c1 (stereo not shown)
IC50 (Replicase polyprotein 1ab, methyltransferase (rep, Severe acute respiratory syndrome coronavirus 2, UniProt P0DTD1); enzyme activity, inhibitor): 6310 nM

Cc1c(C(=O)N2c3ccccc3NC(=O)C2CC(=O)Nc2ccc(Cl)c(Cl)c2)oc2ccccc12 (stereo not shown)
IC50 (rep main protease; enzyme activity, inhibitor, FRET): 18000 nM

CNc1nc(NCc2cccc(NC(=O)CCl)c2)nc(Nc2cccc3cnccc23)n1
IC50 (Replicase polyprotein 1ab, papain-like protease (rep, Severe acute respiratory syndrome coronavirus 2, UniProt P0DTD1); enzyme activity, inhibitor, fluorescence): 780 nM

O=c1c(O[C@@H]2O[C@H](CO)[C@@H](O)[C@H](O)[C@H]2O)c(-c2ccc(O)c(O)c2)oc2cc(O)cc(O)c12
IC50 (Replicase polyprotein 1ab, nsp13 helicase (rep, Severe acute respiratory syndrome coronavirus 2, UniProt P0DTD1); helicase unwinding activity): > 30000 nM

C=CCn1c(C)cc(C(=O)COn2nnc3ccc(S(=O)(=O)N(C)C)cc32)c1C
IC50 (rep main protease; enzyme activity, inhibitor, FRET): 580 nM

Excerpt of the above:
CNc1nc(NCc2cccc(NC(=O)CCl)c2)nc(Nc2cccc3cnccc23)n1
IC50 (Replicase polyprotein 1ab, papain-like protease (rep, Severe acute respiratory syndrome coronavirus 2, UniProt P0DTD1); enzyme activity, inhibitor, fluorescence): 780 nM
